Measured values pooled from the literature.
Parts stem from different laboratories: compare values within a part only.

Set 1
Target: RNA binding protein fox-1 homolog 2, RRM domain, GST-SBP tag (RBFOX2, Homo sapiens, UniProt O43251-10, residues 100-194)
Technique: RNA Bind-n-Seq
Molecule type: RNA
Sample: in vitro
Tested at: 365 nM
Notes: natural RNA segment, single round, ends assumed
Reference: no-protein control
Reading: higher = stronger binding
All sequences stand within: GGGAGUUCUACAGUCCGACGAUC … UGGAAUUCUCGGGUGCCAA
Target sequence (chain): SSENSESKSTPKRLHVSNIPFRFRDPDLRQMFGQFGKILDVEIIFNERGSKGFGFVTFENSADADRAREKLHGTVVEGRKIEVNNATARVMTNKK
| Strand | RBNS enrichment (R) |
| --- | --- |
| CCUUUGAGCUAAACUAAAUUAAAAUUACAGUAUUUAAUAAUUCUUUGGGCAUUUUUAAGAGGUCUGAAUUUGUAUUUUUCUUCAUUUUUGAAACUUUACAUUUGUUGACU | 0.553 |
| UCCAAACUGCCUCUGGCCACUCAGAAGAUGAGGUUGGCUUGGCACUUCACUGUCCCUGAUAUCUGGAGGUGAGAUGGCAGAGAGGGGCACCAGUGGAGCCAGGAUUGGGG | 0.365 |
| GGUGAUUUUCCAGUUGUAAAUGUCAUGCAGCAUUUGAAGGGACUGUGUUUUCUUAAAAAAAAAUCACAGUUACUUCUAAACCAGAUUUCAUUUCUUUUAUUGUUUUAUGU | 0.331 |
| CUUAGGUCUAGUCGCUAGAUCCCCCGUUUUCCCAAGAAGAGGGUUCGAGCCCUUGGUGGGGACAGCUGGGGAGAUGGCAGUGCAGGCUGGAACCUGGGCUGCCCCAGAAC | 0.26 |
| CUUAAAACAGAAUUAUUUCUAUACACACACCUGAAUACUUUGACAAUGAGAUUUAACUUGUUGAAUGUGUUCUGUGAGAUGGGGUGUACCACGACUAUGGUGGGAAAAAC | 0.318 |
| UCUGAUGUUCCGCCCCACUGUGAAGAGUGUGCUCGUUUUAAAUUCAUGUUGAUUCUUGUAAGCACUGGACUGUCUUCAUCAAGUAUUUCCCUACAGAACUCCUCAAGAAA | 0.717 |
| UGUAAAGAAAGAGGGACUGCAGUGUAGCUCCUUUAGUGGUGAGACAUGAAGGCUGUGGCAAUCUCAAGAAAUCAUUUUAAUUUGUACAUAUAUUUUCAGGUUCUGCCCAC | 0.377 |
| AGUGGCUAAGGUUGUUGUUGAUCUUUUUCUCCUUUGUGUGAUCAUCACAGAUGCCAUUUCUGUUUUAUUGAUGAUUAUAUGAGACUUUUAAUACAUAAAUGAACGGGUAC | 0.703 |

Set 2
Target: Histone acetyltransferase KAT6A, both winged helices, GST fusion (KAT6A, Homo sapiens, UniProt Q92794, residues 1-181)
Technique: protein binding microarray
Molecule type: double-stranded DNA, one strand shown
Sample: in vitro
Tested at: not given
Notes: 8-mer, flanks averaged, mean of 2 arrays, mostly near background
Reference: not given
Reading: higher = stronger binding
Construct (chain): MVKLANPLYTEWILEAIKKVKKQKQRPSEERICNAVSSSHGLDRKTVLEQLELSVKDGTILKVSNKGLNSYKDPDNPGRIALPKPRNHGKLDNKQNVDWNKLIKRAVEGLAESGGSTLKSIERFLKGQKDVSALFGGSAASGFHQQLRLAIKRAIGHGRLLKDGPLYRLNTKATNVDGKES
| Strand | E-score |
| --- | --- |
| CTGGCACC | -0.169 |
| TACGGAAA | 0.24 |
| CGGCACTC | 0.136 |
| ATTGCGCC | 0.204 |
| CGACTTCC | 0.125 |
| CGTCCTAG | 0.0257 |
| AGCTTAAC | -0.0548 |
| CAAGTCTA | -0.177 |
| ATTACCTA | -0.0402 |
| GCCGTGGA | 0.25 |
| CAGTCAGA | 0.0396 |

Set 3
Target: TAR DNA-binding protein 43, full length, His tag (TARDBP, Homo sapiens, UniProt Q13148, residues 1-414)
Technique: RNA Bind-n-Seq
Molecule type: RNA
Sample: in vitro
Tested at: 20 nM
Notes: 6-mer, flanks averaged, single round
Together with: 150 mM KCl
Reference: input library
Reading: higher = stronger binding
| Strand | 6-mer enrichment (R) |
| --- | --- |
| UUUUGA | 0.684 |
| GCUGCC | 0.836 |
| AGAUUC | 0.564 |
| GUCACU | 0.645 |
| AGUGUG | 1.9 |
| UUCGUC | 0.593 |
| AACGUC | 0.582 |
| UAGUGU | 0.939 |

Further values, each from its own experiment
| Substance | target | test | system | conditions | how to read | endpoint | result |
| --- | --- | --- | --- | --- | --- | --- | --- |
| PhoQ, residues 284 288 289 292 302 303 AAQSYM | PhoP, residues 12 14 15 18 19 IQFRS (Escherichia coli, UniProt P23836) | Sort-seq, refers to: YFP reporter | E. coli | PhoQ-PhoP variant library, together with: 10 µM Mg2+ | reference: high Mg2+ state, higher = stronger signaling | fold induction | 20.8 |

Repeated from above (set 3):
| Strand | 6-mer enrichment (R) |
| --- | --- |
| AGAUUC | 0.564 |
| AGUGUG | 1.9 |
| UUUUGA | 0.684 |
| AACGUC | 0.582 |
